Experimental data gathered from unrelated publications.
Every numbered part comes from another study and shows a few of its results, in no order.

Study 1
Target: Histone acetyltransferase KAT6A, both winged helices, GST fusion (KAT6A, Homo sapiens, UniProt Q92794, residues 1-181)
Method: protein binding microarray
Form: double-stranded DNA, one strand shown
Medium: in vitro
Tested at: not given
Notes: 8-mer, flanks averaged, mean of 2 arrays, mostly near background
Baseline: not given
Reading: higher = stronger binding
Target sequence (chain): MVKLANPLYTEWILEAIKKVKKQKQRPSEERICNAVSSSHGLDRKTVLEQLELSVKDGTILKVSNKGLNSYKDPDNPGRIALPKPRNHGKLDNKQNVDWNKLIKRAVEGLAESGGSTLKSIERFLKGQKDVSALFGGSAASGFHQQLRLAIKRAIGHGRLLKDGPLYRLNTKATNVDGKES
`AGCGCTGA` gave an E-score of 0.316.
`ACAGTGAC` has an E-score of 0.0515.
`GGTGTGCA` has an E-score of -0.123.
With `CGCACGGC` the E-score was 0.307.
For `CCTCCCTA`, the E-score was -0.241.
With `CGATTGAG` the E-score was -0.0283.
With `CTCCGAAA` the E-score was 0.0189.
For `ATATGGTG`, the E-score was 0.0228.
`AGGGCGAA` has an E-score of -0.0481.
With `GAGGGGAC` the E-score was -0.185.
The E-score of `AGAACTAT` is reported as -0.133.
With `CCTTCAGC` the E-score was -0.149.
The E-score of `CTTTCCGA` is reported as 0.114.
`GCCGCCTA` has an E-score of 0.214.
The E-score of `AGGTGTGA` is reported as -0.122.
`TAATCGTA` has an E-score of -0.0396.
The E-score of `TAGCTGAA` is reported as -0.164.
For `CGCGTTAC`, the E-score was 0.296.
`TGACGTAA` has an E-score of -0.109.
`CGTACCTC` has an E-score of -0.00982.
The E-score of `GTGACTCA` is reported as -0.0209.

Study 2
Target: Interferon regulatory factor 7, full length, phosphomimetic (IRF7, Homo sapiens, UniProt Q92985, residues 1-503, S471D/S472D/S475D/S476D/S477D/S483D/S484D/S487D)
UniProt Q92985, sequence (whole entry, unmodified, looked up): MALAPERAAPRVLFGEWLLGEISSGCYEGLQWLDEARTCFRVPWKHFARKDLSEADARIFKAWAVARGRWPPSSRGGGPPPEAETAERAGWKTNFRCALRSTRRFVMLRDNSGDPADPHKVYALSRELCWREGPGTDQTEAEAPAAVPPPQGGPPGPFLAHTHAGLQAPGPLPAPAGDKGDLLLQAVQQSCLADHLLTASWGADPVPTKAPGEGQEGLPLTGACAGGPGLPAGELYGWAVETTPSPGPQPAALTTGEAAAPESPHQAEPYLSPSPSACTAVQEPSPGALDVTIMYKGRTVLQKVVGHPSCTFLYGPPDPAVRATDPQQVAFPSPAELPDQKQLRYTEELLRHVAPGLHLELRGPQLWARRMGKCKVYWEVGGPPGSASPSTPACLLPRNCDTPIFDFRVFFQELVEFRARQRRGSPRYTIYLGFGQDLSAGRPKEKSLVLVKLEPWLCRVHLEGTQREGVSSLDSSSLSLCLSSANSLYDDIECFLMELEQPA
Method: protein-binding microarray
Form: double-stranded DNA, one strand shown
Medium: in vitro
Tested at: 2200 nM top
Notes: 60-bp whole probe
Added: salmon DNA 0.4 mg/ml
Baseline: random background probes
Reading: higher = stronger binding
Shared flanks, not repeated: GCCTAGCAC … GTCTTGATTCGCTTGACGCTGCTG
`TTAGATCTCAGTTACGATTAGTGCTAG`: “fitted relative affinity” 0.418 z-score.
`CTCTCATTCCAATTCTTTTTGTGCTAG`: “fitted relative affinity” 2.16 z-score.
`GACGGTTTCAGTTCCGGGACGTGCTAG` — result for “fitted relative affinity”: 4.15 z-score.
For `GACGGTATCCTTCTCTTGACGTGCTAG`, “fitted relative affinity” read 1.13 z-score.
Under “fitted relative affinity”, `TTAGGAATGCTTCTCCTTTAGTGCTAG` is recorded as 0.352 z-score.
`GAAGGTCTCCTTCTCCTGACGTGCTAG` — result for “fitted relative affinity”: 0.728 z-score.
For `TATGTTCCTTTAGCACTTTGGTGCTAG`, “fitted relative affinity” read 1.4 z-score.
`TTAGGTACCGGTTTCGGTTAGTGCTAG`: “fitted relative affinity” 6.4 z-score.
`TCAAATTTCTTTCTAATACTGTGCTAG` — result for “fitted relative affinity”: 0.627 z-score.
`CCTGGACGGGAGTGCGGTGCGTGCTAG` — result for “fitted relative affinity”: -1.22 z-score.
For `TCATGAAGCGCTTCTCGAACTGTGCTA`, “fitted relative affinity” read 0.355 z-score.
`GACGCTCTCAGTTTCGAGACGTGCTAG` — result for “fitted relative affinity”: 3.64 z-score.
Under “fitted relative affinity”, `GACGCTTTCGGACTGGGGACGTGCTAG` is recorded as 4.4 z-score.
Under “fitted relative affinity”, `TTAGAACTTGGGTTTCGATTAGTGCTA` is recorded as 2.29 z-score.
`GACGATCTCAGTATCCAGACGTGCTAG` — result for “fitted relative affinity”: 0.595 z-score.
`TGTCCTTTTCTTTACTGATGGTGCTAG`: “fitted relative affinity” 2.41 z-score.
For `TTTGATCTCAGTCTCGATTAGTGCTAG`, “fitted relative affinity” read 0.799 z-score.
`TCAGAACTGAGACTGGATTAGTGCTAG` — result for “fitted relative affinity”: -0.463 z-score.
`TTAGGTTTCGACGTTCGGTTAGTGCTA` — result for “fitted relative affinity”: 2.96 z-score.

Study 3
Target: RNA binding protein fox-1 homolog 2, RRM domain, GST-SBP tag (RBFOX2, Homo sapiens, UniProt O43251-10, residues 100-194)
Method: RNA Bind-n-Seq
Form: RNA
Medium: in vitro
Tested at: 365 nM
Notes: natural RNA segment, single round, ends assumed
Baseline: no-protein control
Reading: higher = stronger binding
Shared flanks, not repeated: GGGAGUUCUACAGUCCGACGAUC … UGGAAUUCUCGGGUGCCAA
Target sequence (chain): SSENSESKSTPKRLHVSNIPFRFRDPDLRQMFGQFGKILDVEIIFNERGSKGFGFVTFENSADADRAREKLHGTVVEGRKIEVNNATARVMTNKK
`CAUGGGAGGAAAGGCUCCACUUGCCCUUAACUCAAGAAGCAGAGCUUGUGCUAUGCACGGGGUGUCUGAGCGGUGCCCAGGCCGUUCCACACAGACACCUCAGUGUUGGA` — result for “RBNS enrichment (R)”: 0.597.
`UGUCUAACAGUUUAAUUGCUCCAGAGCUUUAUAGGUAUUUAAAGACUGAUUAGUAAAUAAAAUUGCCUAUGGCAGGACUUUCUUAAAUUAAUCCUACUCCUUAAAGUGAU` — result for “RBNS enrichment (R)”: 0.35.
`UUCAGGGAACCGUGAGGAUCUGGCAACAUGGCUCUGCUUGCAAUAUCCACUGAGCACUGUAAUACAUUUGACAGGAUGGCUGCAUGAAACUGUCCAGCAUUUUUCUGUCG`: “RBNS enrichment (R)” 1.47.
For `CUGCCCCUUUCUGUCCCAUCCUUCCCAAGAAGAGAGAACUUUUUCGAUAAACUAACUACUGUAGAAGAAGUGAACACUUACCUGGAGGCUCACCUUGCAGAACCAGUGAC`, “RBNS enrichment (R)” read 0.329.
Under “RBNS enrichment (R)”, `CCCAGCAAUGAGGUCCCACCACACCAGGCCACACCCCCCCACUCUUCUGGAGGUGAAGGCCCAGGGCGUGGGGGAGCAGGGAUCAGGAGCACCUGUGGCUUGGUGGAGGC` is recorded as 1.07.
`UGGGCAAACACUGAAAAAAGUGCCUUACAGUAUUUCUGCUCAUGAAAGAGUUUCACUAUUUUGGAUAUAUUCUAAAGUGGACCUGAGCUAUUUGAGCAAAUAAUGAUAGG`: “RBNS enrichment (R)” 0.341.
`GCAAAAUGUGUCUCAUGUUUCGCAACUCUUUUUUUCCCCCUCGCUCCCGCCUACCCCGUCGGCAUUUUCUUCUUCCACCAGCUUUUACUGAACUUUUUGGCACUGCUUUG` — result for “RBNS enrichment (R)”: 1.4.
`GUUUAGGAAGGAUUUGCUUGCUUGCAGCAGAAGUUCUAGGAAAAGCAGGCACCUCCCAAAUAUCUUGAGGACACUGGCAGCCUUAUGGUGACUAAAUCCACACUUUCUUU`: “RBNS enrichment (R)” 0.289.
Under “RBNS enrichment (R)”, `AUCCUCCAUGCCACAUGGUCACUGCUCUCCUCAGGGACCAGGACAAGGUGCUGCUGCUUGCCCAAAUGUUUUCCCAUGGGAUAUGUACCGGAAGGUUUAUCACCACCCUG` is recorded as 0.371.
For `GCAAGUUUACCGUAACUUUUCUUAAACUUUUUAGUGCCGUUUCUAGUAUAUUCCUGUAAAUGUCAGUUACUGAAAAUGAGUCCAUUGUAAGUAGUUUAGCUUGUUUUUUG`, “RBNS enrichment (R)” read 0.656.
Under “RBNS enrichment (R)”, `AUCUAAUGGGACCAGCUUGUGAAGUUUAUAGCCUUAAAGAAAUCUCUGUGCUAAGUUUUAGAACAGUUUAGAACCAUGCAGGGAUGCCGAGAGUCUGGAGUUAGCCCAGU` is recorded as 0.773.
Under “RBNS enrichment (R)”, `AUGAGAAAACAUCAAAACUGCUGUAGUUUUCCAUUUCUACUGUAUUUCAGUUGCAACCUAUUUUUAAUAAACUUUGUAUGUAUUUAAGUGUAUUUGCUAUUGUUUUGAAA` is recorded as 2.6.

Study 4
Target: Ras GTPase-activating protein-binding protein 1, full length (G3BP1, Homo sapiens, UniProt Q13283)
UniProt Q13283, sequence (whole entry, looked up): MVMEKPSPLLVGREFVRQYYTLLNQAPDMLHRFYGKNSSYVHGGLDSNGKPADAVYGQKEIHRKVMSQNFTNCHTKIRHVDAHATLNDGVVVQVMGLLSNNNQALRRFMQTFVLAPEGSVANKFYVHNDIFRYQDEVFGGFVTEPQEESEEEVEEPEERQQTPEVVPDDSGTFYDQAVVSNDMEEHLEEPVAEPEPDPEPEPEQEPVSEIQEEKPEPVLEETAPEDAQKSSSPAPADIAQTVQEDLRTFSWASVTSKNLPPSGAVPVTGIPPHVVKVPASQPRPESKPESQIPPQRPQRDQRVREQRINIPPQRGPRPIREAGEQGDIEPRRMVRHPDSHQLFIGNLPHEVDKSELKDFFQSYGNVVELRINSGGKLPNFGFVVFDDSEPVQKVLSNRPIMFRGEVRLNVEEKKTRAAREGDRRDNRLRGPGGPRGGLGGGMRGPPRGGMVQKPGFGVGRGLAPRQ
Method: RNA Bind-n-Seq
Form: RNA
Medium: in vitro
Tested at: 200 nM
Notes: whole 134-nt RNA, ends assumed
Added: 150 mM LiCl
Baseline: input library
Reading: higher = stronger binding
Library: 7-deaza-guanosine replaces G
Shared flanks, not repeated: GGGAGUUCUACAGUCCGACGAUC … UGGAAUUCUCGGGUGUCAAGG
`GUCCUGUGCUACACAUCGUAUGUACCGAAUCAAAUUUUUAAAUUUUUUUAAACCCAAAAAAGUAUUAUGUUACGCCGUUCGGAUCUGCAC` has a log2 enrichment of -0.785.
With `UUUGCUUGCAGUAUCUGUUUCUCUUCCUAGGCUCAAGUUGGUGACCCAAGCCUAUUGUAAACAAGUGAUUAUCUCAAAGGGAGAUGCCAA` the log2 enrichment was -0.94.
`CUGUGCUACACAUCGUAUGUACCGAAUCGGGGAAAAAAAGGGAAAAAAAGGGAAAAAAAGGAAAGUAUUAUGUUACGCCGUUCGGAUCUG` has a log2 enrichment of -0.13.
For `CUGUGCUACACAUCGUAUGUACCGAAUCGGUUUUUUUGGGGUUUUUUUGGGGUUUUUUUGGAAAGUAUUAUGUUACGCCGUUCGGAUCUG`, the log2 enrichment was 1.52.
For `UAACUUUAGAGGAGGAUCUGAUGGAUAUGGCAGUGGCCGUGGAUUUGGGGAUGGCUAUAAUGGGUAUGGAGGAGGACCUGGAGGUGGCAA`, the log2 enrichment was -0.533.
With `CUCAAGUCCUGUGCUACACAUCGUAUGUACCGAAUCGGGAAGGGAAGGAAGGGGAAAGUAUUAUGUUACGCCGUUCGGAUCUGCACUUCC` the log2 enrichment was -0.248.
With `UCCUCAAGUCCUGUGCUACACAUCGUAUGUACCGAAUCGGUGGUGGUUUGGAAAGUAUUAUGUUACGCCGUUCGGAUCUGCACUUCCAGC` the log2 enrichment was 0.555.
`CUCAAGUCCUGUGCUACACAUCGUAUGUACCGAAUCGGGCCGGGGCCGGCCGGAAAGUAUUAUGUUACGCCGUUCGGAUCUGCACUUCCA` has a log2 enrichment of 0.497.
`GUCCUGUGCUACACAUCGUAUGUACCGAAUCGGUUUUUGGGUUUUUGGGGUUUUUGGGAAAGUAUUAUGUUACGCCGUUCGGAUCUGCAC` gave a log2 enrichment of -0.0416.
With `AAUUCUCAUUUCUCGACAUAAAGCCUUGUCUAAAGUGAGAUGUUUUCCAGGUCAUACAUAGGUUUCUCCCUGGGGUAAUUGGAAGUUCUU` the log2 enrichment was -1.89.
`CACAGACAACACGCACCCACACAGACACAGAGGGAAGGGGUUGGGAUGGGGACAGGGUGCACAGCAGGGCGUGGUAGGACCCCAGCCCCU` gave a log2 enrichment of 0.336.

For quick reference, copied from above (study 2):
`TTAGGTACCGGTTTCGGTTAGTGCTAG`: “fitted relative affinity” 6.4 z-score.
`TCAAATTTCTTTCTAATACTGTGCTAG` — result for “fitted relative affinity”: 0.627 z-score.
`CCTGGACGGGAGTGCGGTGCGTGCTAG` — result for “fitted relative affinity”: -1.22 z-score.
For `TCATGAAGCGCTTCTCGAACTGTGCTA`, “fitted relative affinity” read 0.355 z-score.
`GACGCTCTCAGTTTCGAGACGTGCTAG` — result for “fitted relative affinity”: 3.64 z-score.
Under “fitted relative affinity”, `GACGCTTTCGGACTGGGGACGTGCTAG` is recorded as 4.4 z-score.
Under “fitted relative affinity”, `TTAGAACTTGGGTTTCGATTAGTGCTA` is recorded as 2.29 z-score.
